Measurements of several laboratories.
Protocols differ between the studies behind these lines. Converted amounts (≈) assume the structure as drawn.

With CN[C@H](CC(C)C)C(=O)N[C@H]1C(=O)N[C@@H](CC(N)=O)C(=O)N[C@H]2C(=O)N[C@H]3C(=O)N[C@H](C(=O)N[C@H](C(=O)O)c4cc(O)cc(O)c4-c4cc3ccc4O)[C@H](O)c3ccc(c(Cl)c3)Oc3cc2cc(c3O[C@@H]2O[C@H](CO)[C@@H](O)[C@H](O)[C@H]2O[C@H]2C[C@](C)(N)[C@H](O)[C@H](C)O2)Oc2ccc(cc2Cl)[C@H]1O the MIC90 was 0.5 µg/mL (≈ 0.345 µM) (Streptococcus pyogenes; erythromycin-resistant, 19 strains).
With O=[N+]([O-])c1ccc(C2=[N+]([O-])c3ccccc3N3CCN=C23)cc1 the MIC90 was no more than 0.06 µg/mL (Prevotella spp.; bacterial growth).
For COC(=O)c1ccc2c(ccc3oc([N+](=O)[O-])cc32)c1, the MIC90 was greater than 32 µg/mL (Klebsiella aerogenes; REMA).
[O-][N+]1=C(c2ccc(Cl)cc2)C2=NCCN2c2ccccc21 has an MIC90 of 0.125 µg/mL (≈ 0.42 µM) (Bacteroides fragilis).
For CC[C@H](C)[C@H](NC(=O)[C@H](C)NC(=O)[C@H](CCCCN)NC(=O)[C@H](CC(C)C)NC(=O)[C@H](C)NC(=O)[C@@H](NC(=O)[C@H](Cc1c[nH]cn1)NC(=O)[C@H](CC(C)C)NC(=O)[C@@H](NC(=O)[C@@H](NC(=O)[C@H](CCCCN)NC(=O)[C@H](C)NC(=O)[C@H](C)NC(=O)[C@H](CO)NC(=O)[C@H](CCCCN)NC(=O)[C@H](Cc1ccccc1)NC(=O)[C@@H](NC(=O)[C@H](CCCCN)NC(=O)[C@H](CC(C)C)NC(=O)[C@H](Cc1ccccc1)NC(=O)[C@H](CO)NC(=O)[C@H](CCCCN)NC(=O)[C@H](Cc1c[nH]c2ccccc12)NC(=O)[C@H](CCCCN)NC(C)=O)[C@@H](C)O)[C@@H](C)O)C(C)C)[C@@H](C)O)C(=O)N[C@@H](CO)C(=O)N[C@@H](CO)C(N)=O, the MIC90 was greater than 64 µg/mL (Enterococcus faecalis; 40 strains).
COc1ccc2c(ccc3oc([N+](=O)[O-])c(OC)c32)c1 gave an MIC90 of greater than 32 µg/mL (Klebsiella aerogenes; REMA).
Cn1c(=O)ccc2ccc(F)c(CCNC[C@H]3CN(c4cnc5c(n4)NC(=O)CO5)C(=O)O3)c21 has an MIC90 of 0.06 µg/mL (≈ 0.128 µM) (Enterococcus faecalis).
The MIC90 of COc1c([N+](=O)[O-])oc2ccc3ccccc3c12 is reported as greater than 32 µg/mL (Mycolicibacterium aurum; REMA; ATCC 23366).
The MIC90 of Cc1ncc([N+](=O)[O-])n1CCO is reported as 1 µg/mL (≈ 5.84 µM) (Prevotella spp.; bacterial growth).
